# Assay results pooled from the literature.
# Protocols differ between the studies behind these lines.
# Dipeptidyl peptidase 8: Dipeptidyl peptidase 8 (Homo sapiens, UniProt Q6V1X1)
# UniProt Q6V1X1, sequence (whole entry, looked up): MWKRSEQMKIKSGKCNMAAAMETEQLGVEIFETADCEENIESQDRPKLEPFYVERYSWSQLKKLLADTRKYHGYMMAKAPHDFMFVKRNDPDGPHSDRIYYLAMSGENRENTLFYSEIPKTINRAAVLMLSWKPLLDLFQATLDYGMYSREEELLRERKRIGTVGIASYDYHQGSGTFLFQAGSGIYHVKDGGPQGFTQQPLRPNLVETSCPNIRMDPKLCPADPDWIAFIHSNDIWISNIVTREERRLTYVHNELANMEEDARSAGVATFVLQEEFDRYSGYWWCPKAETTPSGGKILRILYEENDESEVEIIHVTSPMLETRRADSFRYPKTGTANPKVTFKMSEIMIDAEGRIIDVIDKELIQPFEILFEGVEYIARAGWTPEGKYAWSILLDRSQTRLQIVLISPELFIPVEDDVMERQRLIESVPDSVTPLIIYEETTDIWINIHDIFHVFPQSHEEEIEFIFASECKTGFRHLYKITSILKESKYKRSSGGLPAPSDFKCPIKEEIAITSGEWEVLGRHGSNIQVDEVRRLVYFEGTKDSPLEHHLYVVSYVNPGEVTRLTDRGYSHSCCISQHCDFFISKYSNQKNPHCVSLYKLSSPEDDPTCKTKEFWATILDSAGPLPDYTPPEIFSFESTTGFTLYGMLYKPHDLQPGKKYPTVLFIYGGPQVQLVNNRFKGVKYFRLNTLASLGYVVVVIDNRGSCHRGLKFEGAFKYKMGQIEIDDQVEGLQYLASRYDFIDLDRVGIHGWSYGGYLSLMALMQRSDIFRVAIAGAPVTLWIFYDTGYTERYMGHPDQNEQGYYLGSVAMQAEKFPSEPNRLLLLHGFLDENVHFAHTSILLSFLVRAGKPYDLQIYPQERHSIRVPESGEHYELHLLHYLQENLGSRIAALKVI
# ERN2 RNase domain: Serine/threonine-protein kinase/endoribonuclease IRE2, RNase domain (ERN2, Homo sapiens, UniProt Q76MJ5)
# UniProt Q76MJ5, sequence (whole entry, looked up): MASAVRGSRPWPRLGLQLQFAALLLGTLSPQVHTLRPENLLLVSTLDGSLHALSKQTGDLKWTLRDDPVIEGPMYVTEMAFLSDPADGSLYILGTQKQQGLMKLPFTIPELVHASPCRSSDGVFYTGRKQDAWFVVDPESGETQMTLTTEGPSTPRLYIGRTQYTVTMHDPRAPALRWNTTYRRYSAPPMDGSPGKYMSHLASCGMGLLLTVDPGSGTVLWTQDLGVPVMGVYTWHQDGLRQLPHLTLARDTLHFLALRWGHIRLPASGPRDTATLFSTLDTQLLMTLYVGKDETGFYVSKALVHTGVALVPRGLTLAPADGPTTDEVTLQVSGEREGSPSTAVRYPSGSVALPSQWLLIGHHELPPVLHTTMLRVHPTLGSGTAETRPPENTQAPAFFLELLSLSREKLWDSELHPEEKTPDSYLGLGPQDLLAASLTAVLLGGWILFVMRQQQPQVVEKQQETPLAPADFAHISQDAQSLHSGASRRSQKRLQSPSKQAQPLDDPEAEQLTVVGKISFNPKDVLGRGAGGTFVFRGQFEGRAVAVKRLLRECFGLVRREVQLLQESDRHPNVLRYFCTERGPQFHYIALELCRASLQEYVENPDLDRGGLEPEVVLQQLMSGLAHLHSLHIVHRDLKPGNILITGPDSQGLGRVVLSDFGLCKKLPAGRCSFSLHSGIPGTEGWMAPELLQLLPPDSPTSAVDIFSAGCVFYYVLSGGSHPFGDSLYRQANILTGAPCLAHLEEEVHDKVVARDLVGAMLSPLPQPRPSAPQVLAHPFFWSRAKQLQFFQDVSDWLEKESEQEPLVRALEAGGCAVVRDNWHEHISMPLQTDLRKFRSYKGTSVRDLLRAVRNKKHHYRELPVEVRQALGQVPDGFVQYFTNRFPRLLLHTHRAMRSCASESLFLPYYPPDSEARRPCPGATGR
# PRSS1: Serine protease 1 (PRSS1, Bos taurus, UniProt P00760)
# UniProt P00760, sequence (whole entry, looked up): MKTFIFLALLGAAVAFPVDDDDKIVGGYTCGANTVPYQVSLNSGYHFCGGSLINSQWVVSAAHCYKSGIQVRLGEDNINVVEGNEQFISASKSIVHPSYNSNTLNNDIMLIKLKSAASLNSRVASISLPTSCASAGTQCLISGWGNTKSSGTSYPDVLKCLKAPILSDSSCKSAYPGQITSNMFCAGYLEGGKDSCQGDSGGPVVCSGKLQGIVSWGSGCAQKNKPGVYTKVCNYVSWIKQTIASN
# PTGS2: Prostaglandin G/H synthase 2 (PTGS2, Ovis aries, UniProt P79208)
# UniProt P79208, sequence (whole entry, looked up): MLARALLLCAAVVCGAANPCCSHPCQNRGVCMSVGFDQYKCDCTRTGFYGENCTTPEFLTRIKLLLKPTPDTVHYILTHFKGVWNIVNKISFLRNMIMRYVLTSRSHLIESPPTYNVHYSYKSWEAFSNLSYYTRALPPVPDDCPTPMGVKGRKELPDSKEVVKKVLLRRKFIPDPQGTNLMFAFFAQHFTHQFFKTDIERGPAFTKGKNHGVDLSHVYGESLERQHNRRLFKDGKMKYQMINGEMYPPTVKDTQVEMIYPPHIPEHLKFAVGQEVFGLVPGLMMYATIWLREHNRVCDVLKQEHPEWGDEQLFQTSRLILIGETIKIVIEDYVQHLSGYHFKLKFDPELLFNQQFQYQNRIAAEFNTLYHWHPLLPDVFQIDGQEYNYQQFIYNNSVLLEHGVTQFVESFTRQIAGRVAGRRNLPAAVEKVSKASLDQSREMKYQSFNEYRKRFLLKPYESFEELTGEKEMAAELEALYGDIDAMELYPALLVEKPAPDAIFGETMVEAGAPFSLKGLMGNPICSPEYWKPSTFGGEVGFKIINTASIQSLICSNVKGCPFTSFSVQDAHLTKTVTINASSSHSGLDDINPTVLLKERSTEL
# CTSL: Procathepsin L (CTSL, Homo sapiens, UniProt P07711)
# UniProt P07711, sequence (whole entry, looked up): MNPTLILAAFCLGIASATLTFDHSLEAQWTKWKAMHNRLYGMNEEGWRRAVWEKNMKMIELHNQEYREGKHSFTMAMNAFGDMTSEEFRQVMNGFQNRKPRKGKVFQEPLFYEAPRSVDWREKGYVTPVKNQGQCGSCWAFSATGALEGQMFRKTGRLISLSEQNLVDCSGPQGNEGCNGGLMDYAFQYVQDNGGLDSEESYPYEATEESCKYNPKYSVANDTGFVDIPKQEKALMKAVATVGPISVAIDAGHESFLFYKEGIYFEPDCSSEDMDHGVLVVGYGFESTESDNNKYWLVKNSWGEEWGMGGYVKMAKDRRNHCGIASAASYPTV
# ERN1 RNase domain: Serine/threonine-protein kinase/endoribonuclease IRE1, RNase domain (ERN1, Homo sapiens, UniProt O75460)
# UniProt O75460, sequence (whole entry, looked up): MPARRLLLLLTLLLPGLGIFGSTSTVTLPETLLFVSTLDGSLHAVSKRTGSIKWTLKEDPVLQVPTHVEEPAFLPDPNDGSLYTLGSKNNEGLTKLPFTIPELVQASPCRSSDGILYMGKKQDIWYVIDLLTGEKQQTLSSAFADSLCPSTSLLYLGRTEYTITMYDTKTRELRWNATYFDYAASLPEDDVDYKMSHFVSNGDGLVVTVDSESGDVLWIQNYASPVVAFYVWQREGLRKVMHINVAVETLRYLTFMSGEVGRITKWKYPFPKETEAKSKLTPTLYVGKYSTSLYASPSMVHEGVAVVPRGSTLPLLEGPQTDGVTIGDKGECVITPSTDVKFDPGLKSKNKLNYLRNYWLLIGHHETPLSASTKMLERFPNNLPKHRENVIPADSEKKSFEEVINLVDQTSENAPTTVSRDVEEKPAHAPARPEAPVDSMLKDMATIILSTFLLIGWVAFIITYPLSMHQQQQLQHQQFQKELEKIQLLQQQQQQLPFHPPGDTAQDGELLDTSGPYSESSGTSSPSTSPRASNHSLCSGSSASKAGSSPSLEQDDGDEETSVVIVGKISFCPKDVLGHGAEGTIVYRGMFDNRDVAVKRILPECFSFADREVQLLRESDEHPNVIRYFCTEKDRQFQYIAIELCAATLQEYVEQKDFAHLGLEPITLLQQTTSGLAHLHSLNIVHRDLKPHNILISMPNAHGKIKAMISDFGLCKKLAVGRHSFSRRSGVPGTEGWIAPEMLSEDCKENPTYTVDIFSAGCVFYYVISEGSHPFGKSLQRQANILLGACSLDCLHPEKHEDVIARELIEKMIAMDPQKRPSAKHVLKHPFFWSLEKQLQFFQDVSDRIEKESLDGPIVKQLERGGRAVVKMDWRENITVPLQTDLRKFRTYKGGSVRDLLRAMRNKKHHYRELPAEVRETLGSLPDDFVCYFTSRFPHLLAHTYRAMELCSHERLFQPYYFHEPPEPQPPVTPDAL
# UniProt Q969S8, sequence (whole entry, looked up): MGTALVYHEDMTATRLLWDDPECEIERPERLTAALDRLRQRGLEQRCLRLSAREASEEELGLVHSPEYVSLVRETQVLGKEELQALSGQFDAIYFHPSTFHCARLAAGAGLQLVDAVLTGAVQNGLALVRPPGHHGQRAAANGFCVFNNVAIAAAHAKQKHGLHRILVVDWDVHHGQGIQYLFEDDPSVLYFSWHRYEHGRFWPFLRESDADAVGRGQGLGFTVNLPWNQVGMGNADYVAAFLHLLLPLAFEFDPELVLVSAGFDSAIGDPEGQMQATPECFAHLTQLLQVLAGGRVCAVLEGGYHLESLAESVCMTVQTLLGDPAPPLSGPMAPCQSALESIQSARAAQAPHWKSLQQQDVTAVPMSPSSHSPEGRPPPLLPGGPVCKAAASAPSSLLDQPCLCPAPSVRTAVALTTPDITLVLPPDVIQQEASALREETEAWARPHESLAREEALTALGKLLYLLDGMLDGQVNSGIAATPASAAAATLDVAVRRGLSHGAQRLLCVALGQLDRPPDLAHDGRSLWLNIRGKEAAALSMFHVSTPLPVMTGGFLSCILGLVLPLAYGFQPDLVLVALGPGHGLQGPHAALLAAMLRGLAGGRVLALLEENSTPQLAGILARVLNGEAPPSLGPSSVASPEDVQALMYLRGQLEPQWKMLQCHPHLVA
# UniProt P19784, sequence (whole entry, looked up): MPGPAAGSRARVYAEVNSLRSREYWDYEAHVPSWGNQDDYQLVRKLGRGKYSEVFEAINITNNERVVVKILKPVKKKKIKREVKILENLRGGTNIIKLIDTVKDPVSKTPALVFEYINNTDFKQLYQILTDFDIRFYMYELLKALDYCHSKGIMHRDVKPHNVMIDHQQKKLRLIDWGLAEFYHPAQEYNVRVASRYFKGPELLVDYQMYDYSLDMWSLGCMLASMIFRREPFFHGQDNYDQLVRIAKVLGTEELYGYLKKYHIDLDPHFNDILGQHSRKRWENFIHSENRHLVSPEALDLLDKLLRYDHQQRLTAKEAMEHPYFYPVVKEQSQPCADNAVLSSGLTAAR
SMILES,target,test,conditions,how to read,selectivity ratio
Cn1c(=O)c(=O)n(C)c2cc(S(=O)(=O)Nc3ccc(S(=O)(=O)Nc4ncccn4)cc3)ccc21,Dipeptidyl peptidase 8,inhibitor,with: Gly-Pro-AMC,relative to: IC50 DPP8/9 over DPP4,> 1000
COc1ccc(C(=O)NO)cc1NC(=O)c1ccc(-c2ccccc2)cc1,"HDAC10 (Homo sapiens, UniProt Q969S8)",,,relative to: HDAC10 over other HDACs,≥ 30 fold
NC1CCC(Nc2nccc(-c3cccnc3Oc3cccc4c(NS(=O)(=O)C5CCC5)cccc34)n2)CC1 (stereo not drawn),ERN2 RNase domain,RNase activity,,relative to: IRE1α IC50 over IRE1β IC50,0.003 fold
O=C(Nc1ccc(C(=O)Nc2ccc(C(=O)Nc3ccc(S(=O)(=O)O)c4cc(S(=O)(=O)O)cc(S(=O)(=O)O)c34)cc2)cc1)Nc1ccc(C(=O)Nc2ccc(C(=O)Nc3ccc(S(=O)(=O)O)c4cc(S(=O)(=O)O)cc(S(=O)(=O)O)c34)cc2)cc1,PRSS1,,,relative to: HNE over PRSS1,≥ 818 fold
O=S(=O)(Nc1cc(F)c(Oc2ncccc2-c2ccnc(N[C@H]3CCCNC3)n2)cc1Cl)c1ccccc1Cl,ERN2 RNase domain,RNase activity,,relative to: IRE1α IC50 over IRE1β IC50,4.5 fold
CC[C@H](C)[C@H](NC(=O)[C@@H]1CSSC[C@H](NC(=O)[C@H](Cc2ccc(O)cc2)NC(=O)CNC(C)=O)C(=O)N[C@@H](CO)C(=O)N[C@@H](CCCNC(=N)N)C(=O)N[C@@H](CO)C(=O)N[C@@H](Cc2ccc(O)cc2)C(=O)N2CCC[C@H]2C(=O)N2CCC[C@H]2C(=O)N[C@@H](C(C)C)C(=O)N1)C(=O)N1CCC[C@H]1C(=O)N[C@@H](CC(=O)O)C(N)=O,PRSS1,,,relative to: Ki trypsin over Ki MASP-2,0.9
C[C@H]1CCCC[C@@H]1NC(=O)/C(C#N)=C/c1cn(-c2ccccc2)nc1-c1cccs1,PTGS2,,,relative to: COX-1 IC50 over COX-2 IC50,20
NC1CCC(Nc2nccc(-c3cccnc3Oc3ccc(NS(=O)(=O)c4ccccc4Cl)cc3F)n2)CC1 (stereo not drawn),ERN2 RNase domain,RNase activity,,relative to: IRE1α IC50 over IRE1β IC50,60
"O=C(O)C(=O)O.O=C(c1ccc(NCCF)cc1)C1CCN(C2Cc3ccccc3CC2O)CC1 (single isomer, unassigned; (-))","sigma-2 receptor, rat",,,relative to: Ki sigma-2 over Ki VAChT,17700
O=c1[nH]c(=S)[nH]c2c1C(c1cc(/N=N/c3ccc(Br)cc3)ccc1O)c1c([nH]c(=S)[nH]c1=O)N2,PTGS2,"enzyme activity, inhibitor, enzyme immunoassay",,relative to: IC50 COX-1 over IC50 COX-2,9.02
CCC1(CC)C(=O)N(c2cccc(CN3CCN(Cc4cccc5cccnc45)CC3)c2)C1=O,Dipeptidyl peptidase 8,,,relative to: Ki DPP9 over Ki target,0.2
Cc1ccc(C[C@H](NC(=O)CN2CCCc3cc4cc(C(=O)NCCNC(=O)CCCC[C@@H]5SC[C@@H]6NC(=O)N[C@@H]65)c(=O)oc4cc32)C(=O)NC/C=C/S(=O)(=O)c2ccccc2)cc1,CTSL,,,relative to: rhodesain over cathepsin L kinact/Ki,2.7
CC(C)c1ccc2c(c1)CC[C@H]1[C@](C)(C(=O)O)CCC[C@]21C,"CA2 (Homo sapiens, UniProt P00918)",,,relative to: IC50 CA II over IC50 CA IX,5.6
NC1CCC(Nc2nccc(-c3cccnc3Oc3ccc(NS(=O)(=O)C4CCC4)c4ccccc34)n2)CC1 (stereo not drawn),ERN1 RNase domain,RNase activity,,relative to: IRE1β IC50 over IRE1α IC50,> 2000 fold
O=C(NCc1ccccc1)/C(=C/c1cn(-c2ccccc2)nc1-c1ccccc1)NC(=O)c1ccc(Cl)cc1Cl,PTGS2,,,relative to: COX-1 IC50 over COX-2 IC50,11.4
"O=C(O)C(=O)O.O=C(c1ccc(=O)n(CCF)c1)C1CCN(C2Cc3ccccc3CC2O)CC1 (single isomer, unassigned; (+))","sigma-2 receptor, rat",,,relative to: Ki sigma-2 over Ki VAChT,680
Cc1cccc(/N=N/c2ccc(O)c(C3c4c([nH]c(=S)[nH]c4=O)Nc4[nH]c(=S)[nH]c(=O)c43)c2)c1,PTGS2,"enzyme activity, inhibitor, enzyme immunoassay",,relative to: IC50 COX-1 over IC50 COX-2,1.65
COC(=O)c1cc2cc3c(cc2oc1=O)N(CC(=O)NC(Cc1ccc(C)cc1)C(=O)NCC=CS(=O)(=O)c1ccccc1)CCC3 (stereo not drawn),CTSL,,,relative to: rhodesain over cathepsin L kinact/Ki,1.3
O=c1c(-c2cnn(-c3ccccc3)c2)c(C(F)(F)F)oc2c(O)c(O)ccc12,ROC1-CUL4A CTD,"binding, microscale thermophoresis",,relative to: Kd ROC1-CUL1 CTD over Kd ROC1-CUL4A CTD,~20 fold
COc1ccc(/N=N/c2ccc(O)c(C3c4c([nH]c(=S)[nH]c4=O)Nc4[nH]c(=S)[nH]c(=O)c43)c2)cc1,PTGS2,"enzyme activity, inhibitor, enzyme immunoassay",,relative to: IC50 COX-1 over IC50 COX-2,2.73
CC[C@H](C)[C@H](NC(=O)[C@@H]1CSSC[C@H](NC(=O)[C@H](Cc2ccc(O)cc2)NC(=O)CN)C(=O)N[C@@H](CO)C(=O)N[C@@H](CCCNC(=N)N)C(=O)N[C@@H](CO)C(=O)N[C@@H](Cc2ccc(O)cc2)C(=O)N2CCC[C@H]2C(=O)N2CCC[C@H]2C(=O)N[C@@H](C(C)C)C(=O)N1)C(=O)N1CCC[C@H]1C(=O)N[C@@H](CC(=O)O)C(N)=O,PRSS1,,,relative to: Ki trypsin over Ki MASP-2,0.6
O=S(=O)(Cc1ccccc1Cl)Nc1ccc(Oc2ncccc2-c2ccnc(N[C@H]3CCCNC3)n2)cc1F,ERN1 RNase domain,RNase activity,,relative to: IRE1β IC50 over IRE1α IC50,~10 fold
CN(C)CCNC(=O)c1cccc2c(NCCCCc3c(N)nc(N)nc3N)c3ccccc3nc12,"RNA F, A–A mismatch","binding, ITC",,relative to: Kd RNA A over Kd RNA F,33
CCn1c(-c2cc(NC(=O)c3cnccn3)n[nH]2)cc2ccccc21,"CSNK2A2 (Homo sapiens, UniProt P19784)",ADP-Glo,,relative to: IC50 CK2α' over CK2α,3.3 fold

# A few entries again:
SMILES,target,test,conditions,how to read,selectivity ratio
O=S(=O)(Nc1cc(F)c(Oc2ncccc2-c2ccnc(N[C@H]3CCCNC3)n2)cc1Cl)c1ccccc1Cl,ERN2 RNase domain,RNase activity,,relative to: IRE1α IC50 over IRE1β IC50,4.5 fold
CCC1(CC)C(=O)N(c2cccc(CN3CCN(Cc4cccc5cccnc45)CC3)c2)C1=O,Dipeptidyl peptidase 8,,,relative to: Ki DPP9 over Ki target,0.2
NC1CCC(Nc2nccc(-c3cccnc3Oc3cccc4c(NS(=O)(=O)C5CCC5)cccc34)n2)CC1 (stereo not drawn),ERN2 RNase domain,RNase activity,,relative to: IRE1α IC50 over IRE1β IC50,0.003 fold
COc1ccc(/N=N/c2ccc(O)c(C3c4c([nH]c(=S)[nH]c4=O)Nc4[nH]c(=S)[nH]c(=O)c43)c2)cc1,PTGS2,"enzyme activity, inhibitor, enzyme immunoassay",,relative to: IC50 COX-1 over IC50 COX-2,2.73
